Measured values collected from several papers.
Protocols differ between the studies behind these lines. Several values in a cell are separate wells, animals, samples, runs or records. Numbers after ± are the reported error.

SMILES	test	test system	conditions	scale	quantity	result
NNc1ccccc1	hydrazine ligation kinetics, absorbance	–	concentration not given, 20 s, together with: 2-formylphenylboronic acid	–	normalised absorbance	0.869
Cc1nc(Nc2ccc(CC(=O)O)cc2)nc(Nc2ccc(F)c(C(F)(F)F)c2)c1C	refers to: PDE4D	C57BL/6J mice, high-fat diet, liver	intraperitoneal, 0.3 mg/kg daily, 60% fat diet 12 weeks, dosed last four	reference: vehicle	mRNA level	no effect
[Cl][Ru-]([Cl])([Cl])[Cl].[Na+].c1ccc2[nH]ncc2c1.c1ccc2[nH]ncc2c1	CT, RECIST 1.1	human	320 mg/m2	–	duration of disease control	98 weeks
CC[C@H](C)[C@@H]1NC(=O)[C@@H]2CCCN2C(=O)[C@H](CC(C)C)NC(=O)[C@H](CC(C)C)NC(=O)CNC(=O)[C@@H](NC(=O)[C@@H](NC(=O)[C@H](CC(=O)O)NC(=O)CNC(=O)[C@@H](NC(=O)[C@H](C)NC(=O)CNC(=O)[C@H](CCCCN)NC(=O)[C@H](CC(C)C)NC(=O)[C@H](CC(C)C)NC(=O)[C@H](CCCCN)NC(=O)CNC(=O)[C@@H](NC(=O)[C@@H](N)CC(C)C)C(C)C)C(C)C)C(C)C)CSSC[C@@H](C(=O)O)NC1=O	RNA-seq, refers to: Rhog mRNA	mouse traumatic brain injury, frontal cortex and hippocampus	dose not given	reference: TBI plus compound vs TBI	log2 fold change	-1.32
CC[C@@H](C)[C@@H](NC(=O)[C@@H](Cc1ccc(O)cc1)NC(=O)[C@H]1CCCN1C(=O)[C@@H](CCCNC(=N)N)NC(=O)[C@H](N)Cc1c[nH]cn1)C(=O)N[C@H](C)C(=O)N[C@H](Cc1c[nH]cn1)C(=O)N[C@H](CCCNC(=N)N)C(=O)N[C@H](CCCCNC(=O)c1cccc(S(=O)(=O)F)c1)C(=O)N[C@H](Cc1ccc(O)cc1)C(=O)N[C@H](CO)C(=O)N[C@H](Cc1ccccc1)C(N)=O	ex vivo flow cytometry	B16 tumour-bearing mice, tumor	dose not given	–	IFN-γ+ CD8+ T cell frequency	31.1% and 51.2% and 22.2% and 22.4% and 46.7%
CN1CCN(S(=O)(=O)c2cc([N+](=O)[O-])ccc2N(CCOS(C)(=O)=O)CCOS(C)(=O)=O)CC1	–	NSG mice, T-ALL PDX sample F	intraperitoneal, 25 mg/kg, single mouse trial	–	event-free survival	> 332 days
C[C@H]1O[C@@H](O[C@H]2CC[C@@]3(C)[C@@H](CC[C@]4(C)[C@@H]3C=C[C@]35OC[C@@]6(CCC(C)(C)C[C@H]63)[C@@H](O)C[C@]54C)[C@]2(C)CO)[C@H](O)[C@@H](O[C@@H]2O[C@H](CO)[C@@H](O)[C@H](O)[C@H]2O)[C@H]1O	H&E staining	hepatic SIRT1 knockdown mice, chronic-plus-binge ethanol, liver	dose not given, AAV8-TBG-shRNA, high dose	–	steatosis area	22.2% and 27.3% and 27.8% and 22% and 18.7% and 21.9% and 25.7%
CCCCC1(CCCC)CN(c2ccccc2)c2cc(SC)c(OCC(=O)N[C@@H](C(=O)NCC(=O)O)c3ccccc3)cc2S(=O)(=O)C1	refers to: LDL cholesterol	human, serum	10 mg once daily, day 9	–	serum LDL-C	90.5 mg/dL
FC(F)(F)c1ccc2c(c1)[C@@H]1CNC[C@H]2C1	intermittent two-bottle choice	Wistar rat, 20% ethanol drinking	subcutaneous, 10 mg/kg, 6 h	reference: ethanol over total fluid intake	ethanol preference	29 ± 3%

A few entries again:
SMILES	test	test system	conditions	scale	quantity	result
C[C@H]1O[C@@H](O[C@H]2CC[C@@]3(C)[C@@H](CC[C@]4(C)[C@@H]3C=C[C@]35OC[C@@]6(CCC(C)(C)C[C@H]63)[C@@H](O)C[C@]54C)[C@]2(C)CO)[C@H](O)[C@@H](O[C@@H]2O[C@H](CO)[C@@H](O)[C@H](O)[C@H]2O)[C@H]1O	H&E staining	hepatic SIRT1 knockdown mice, chronic-plus-binge ethanol, liver	dose not given, AAV8-TBG-shRNA, high dose	–	steatosis area	22.2% and 27.3% and 27.8% and 22% and 18.7% and 21.9% and 25.7%
